Published values gathered from unrelated publications.
Compare with care: the assays were run in different laboratories. Several values in a cell are separate wells, animals, samples, runs or records. Numbers after ± are the reported error.
Chain of UniProt P09488 (whole entry, looked up): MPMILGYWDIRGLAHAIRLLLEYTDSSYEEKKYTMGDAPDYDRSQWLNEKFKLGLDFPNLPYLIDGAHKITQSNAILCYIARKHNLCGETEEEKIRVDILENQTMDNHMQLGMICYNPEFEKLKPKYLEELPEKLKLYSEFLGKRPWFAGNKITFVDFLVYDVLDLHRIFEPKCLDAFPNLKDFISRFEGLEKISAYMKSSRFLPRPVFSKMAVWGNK
Chain of UniProt P08183 (whole entry, looked up): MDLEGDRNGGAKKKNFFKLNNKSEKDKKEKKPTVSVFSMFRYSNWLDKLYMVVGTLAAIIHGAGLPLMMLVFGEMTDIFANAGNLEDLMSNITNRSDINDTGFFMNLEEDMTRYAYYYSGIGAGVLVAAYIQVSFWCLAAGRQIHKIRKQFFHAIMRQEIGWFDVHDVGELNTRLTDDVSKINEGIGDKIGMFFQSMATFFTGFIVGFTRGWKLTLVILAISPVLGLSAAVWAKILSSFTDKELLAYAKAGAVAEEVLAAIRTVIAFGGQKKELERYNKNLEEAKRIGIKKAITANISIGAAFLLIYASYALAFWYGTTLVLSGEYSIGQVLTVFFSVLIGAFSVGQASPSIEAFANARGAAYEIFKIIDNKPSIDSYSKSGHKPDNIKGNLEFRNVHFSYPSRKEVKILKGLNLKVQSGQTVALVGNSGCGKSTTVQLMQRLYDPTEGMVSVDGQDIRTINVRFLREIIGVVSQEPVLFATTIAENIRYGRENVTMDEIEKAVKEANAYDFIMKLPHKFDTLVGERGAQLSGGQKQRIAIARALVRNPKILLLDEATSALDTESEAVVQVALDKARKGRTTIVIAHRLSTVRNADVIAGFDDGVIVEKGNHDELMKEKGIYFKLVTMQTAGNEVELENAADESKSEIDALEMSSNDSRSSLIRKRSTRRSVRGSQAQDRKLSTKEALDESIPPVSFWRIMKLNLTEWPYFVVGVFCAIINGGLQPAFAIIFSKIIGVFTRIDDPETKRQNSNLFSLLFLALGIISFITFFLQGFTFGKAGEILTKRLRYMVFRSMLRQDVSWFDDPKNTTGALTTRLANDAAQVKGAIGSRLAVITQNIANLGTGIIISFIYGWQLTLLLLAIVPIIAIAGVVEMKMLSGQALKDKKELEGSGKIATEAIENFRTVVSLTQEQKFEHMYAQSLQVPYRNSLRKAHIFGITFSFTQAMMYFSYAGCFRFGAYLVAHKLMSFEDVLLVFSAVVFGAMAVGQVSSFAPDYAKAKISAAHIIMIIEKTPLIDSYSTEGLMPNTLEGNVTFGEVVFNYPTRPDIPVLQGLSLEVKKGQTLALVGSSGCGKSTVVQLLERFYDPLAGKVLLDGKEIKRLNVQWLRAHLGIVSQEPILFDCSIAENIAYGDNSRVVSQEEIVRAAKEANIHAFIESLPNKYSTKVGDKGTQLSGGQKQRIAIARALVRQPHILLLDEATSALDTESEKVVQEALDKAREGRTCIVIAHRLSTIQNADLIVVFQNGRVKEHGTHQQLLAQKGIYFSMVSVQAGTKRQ

| SMILES | tested on | test | system | setting | how to read | endpoint | result |
| --- | --- | --- | --- | --- | --- | --- | --- |
| Cc1cc(C(=O)NC(C)(C)COc2cccc3c2C(N)=NS(=O)(=O)N3)cc(C)n1 | Escherichia coli | Ames test, initial | WP2 uvrA | 500 µg/plate, with: rat liver S9 | reference: solvent control | revertant ratio | 0.7 |
| CCCC[C@H]1C(=O)N(C)[C@@H](CCCC)C(=O)N[C@@H](CCCCNC(=O)CN2CCN(CC(=O)O)CCN(CC(=O)O)CC2)C(=O)N[C@H](C(=O)NCC(N)=O)CSCC(=O)N[C@@H](Cc2ccc(O)cc2)C(=O)N(C)[C@@H](C)C(=O)N[C@@H](CC(N)=O)C(=O)N2CCC[C@H]2C(=O)N[C@@H](Cc2c[nH]cn2)C(=O)N[C@@H](CCC(=O)O)C(=O)N2C[C@H](O)C[C@H]2C(=O)N[C@@H](Cc2c[nH]c3ccccc23)C(=O)N[C@@H](CO)C(=O)N[C@@H](Cc2cn(CC(=O)O)c3ccccc23)C(=O)N1C [gallium-68 labelled] | Programmed cell death 1 ligand 1 (CD274, Homo sapiens, UniProt Q9NZQ7) | PET | hu-CD34+ NOG-EXL mouse, U-87 MG xenograft | day 7, with: 10 mg/kg anti-hPD-L1 antibody | – | tumour uptake | 1.68 %ID/g |
| C#Cc1ccc2c(c1)C(c1ccccn1)=NCc1c(-c3cnco3)ncn1-2.Cl | – | shake flask | 50 mM phosphate buffer | 24 h, pH 7, 25 °C | – | solubility | 644 µg/mL |
| OCc1ncc2n1-c1ccc(Cl)cc1C(c1ccccc1F)=NC2 | – | – | human, plasma | 7.5 mg midazolam, day 12, geometric mean, with: amenamevir 400 mg | – | AUC(0-inf) | 39.9 ng·h/mL |
| CC[C@H](C)[C@H](NC(=O)[C@H](CC(C)C)NC(=O)[C@H](CCCCN)NC(=O)[C@H](CCCCN)NC(=O)[C@H](CCCCN)NC(=O)[C@H](CCCCN)NC(=O)[C@H](CC(C)C)NC(=O)[C@@H](NC(=O)[C@@H](NC(=O)[C@@H](NC(=O)[C@H](CC(C)C)NC(=O)[C@H](CCCNC(=N)N)NC(=O)[C@H](CO)NC(=O)[C@@H](N)CO)C(C)C)[C@@H](C)CC)[C@@H](C)CC)C(=O)N[C@@H](CO)C(=O)N[C@@H](CCCCN)C(=O)N[C@@H](CCCCN)C(=O)N[C@@H](CCCCN)C(=O)N[C@@H](CCCCN)C(N)=O | human erythrocytes | – | – | 400 µM, 1 h | reference: Triton X-100 | hemolysis | 10% |
| CN1CC[C@@H](c2c(O)cc(O)c3c(=O)cc(-c4ccc(C(F)(F)F)cc4Cl)oc23)[C@@H]1CO | – | measured: Vomiting | B-cell malignancies | oral, 200 mg, intermittent dosing | – | patients with adverse event | 100% |
| C=C1C[C@@H]2[C@H](CC[C@]3(C)C(=O)CC[C@@H]23)[C@@]2(C)C=CC(=O)C=C12 | Glutathione S-transferase Mu 1 (GSTM1, Homo sapiens, UniProt P09488) | substrate, recombinant enzyme | – | 250 µM, 1 h, 37 °C, enzyme 2.5 ng/µL, active if above 3-fold of mock, with: glutathione 5 mM | – | glutathione conjugation | active |
| Cc1ncc2n1-c1ccc(Cl)cc1C(c1ccccc1F)=NC2 | – | – | wild-type mouse, plasma | intravenous, 0.3 mg/kg, 3-day vehicle pretreatment | – | AUC(0-90 min) | 0.0332 ± 0.00293 µM·h |
| CC[C@H](C)[C@H](NC(=O)[C@H](CC(C)C)NC(=O)[C@@H](NC(=O)[C@@H](NC(=O)[C@@H](NC(=O)[C@H](CCCNC(=N)N)NC(=O)[C@H](CCCNC(=N)N)NC(=O)[C@H](CCCNC(=N)N)NC(=O)[C@@H](N)CCCNC(=N)N)C(C)C)[C@@H](C)CC)[C@@H](C)CC)C(=O)N[C@@H](CO)C(=O)N[C@@H](CC(C)C)C(=O)N[C@@H](CCCNC(=N)N)C(=O)N[C@@H](CCCNC(=N)N)C(=O)N[C@@H](CCCNC(=N)N)C(=O)N[C@@H](CCCNC(=N)N)C(=O)N[C@@H](Cc1ccccc1)C(=O)N[C@@H](CO)C(=O)N[C@@H](C)C(=O)N[C@@H](Cc1ccc(O)cc1)C(N)=O | human erythrocytes | – | – | 400 µM, 1 h | reference: Triton X-100 | hemolysis | 25% |
| COc1cccc(-c2n[nH]c(SCc3ccccn3)n2)c1OC | Salmonella typhimurium | Ames test, plate incorporation | TA98 | 0.25 mg/plate, without S9 | – | revertant colonies per plate | 15 |
| CCN(CC)C(=O)[C@@H]1C=C2c3cccc4[nH]cc(c34)C[C@H]2N(C)C1 | – | – | human | oral, 100 µg | – | half-life | 3.36 h and 3.17 h and 3 h and 6.11 h and 3.73 h and 2.85 h and 3.26 h |
| OC(CCN1CC=C(c2ccc(F)cc2)CC1)c1ccc(F)c2ccccc12 (stereo not shown) | Salmonella typhimurium | SOS/umu test | TA1535/pSK1002 | 0.002 mg/mL, 4 h, without S9, lower range | – | survival | 102% |
| O=C1c2c(O)c(=O)ccn2N([C@@H]2c3ccccc3SCc3c2ccc(F)c3F)[C@@H]2COCCN12 | – | – | BALB/c mice, plasma | oral, 1.5 mg/kg baloxavir marboxil, 12 h | – | plasma concentration | 0.967 ng/mL |
| CC[C@H](C)[C@H](NC(=O)[C@H](C)N)C(=O)N[C@@H](CO)C(=O)NCC(=O)N[C@@H](CO)C(=O)N[C@@H](CC(C)C)C(=O)N[C@H](C(=O)N[C@H](C(=O)N[C@@H](CC(C)C)C(=O)N[C@@H](Cc1ccccc1)C(=O)NCC(=O)N[C@@H](Cc1ccc(O)cc1)C(=O)N[C@@H](CCCNC(=N)N)C(=O)N[C@@H](CCCNC(=N)N)C(=O)N[C@@H](CCCNC(=N)N)C(=O)N[C@@H](CCCNC(=N)N)C(=O)N[C@@H](CCCNC(=N)N)C(=O)N[C@@H](CCCNC(=N)N)C(N)=O)[C@@H](C)O)C(C)C | human erythrocytes | – | – | 400 µM, 1 h | reference: Triton X-100 | hemolysis | 28% |
| CO[C@H]1C[C@@H]2CC[C@@H](C)[C@@](O)(O2)C(=O)C(=O)N2CCCC[C@H]2C(=O)O[C@H]([C@H](C)C[C@@H]2CC[C@@H](OC(=O)NCCOCCOCCOCCOCCOCCOCCOCCOCCC(=O)N3CCc4cc(Cn5nc(-c6ccc7oc(N)nc7c6)c6c(N)ncnc65)ccc4C3)[C@H](OC)C2)C[C@@H](O)[C@H](C)/C=C(\C)[C@@H](O)[C@@H](OC)C(=O)[C@H](C)C[C@H](C)/C=C/C=C/C=C/1C | – | phase 1 dose escalation, measured: mucositis | advanced solid tumour patients | intravenous, 12 mg weekly, grade ≥3 | – | dose-reducing adverse events | 0% |
| CCCCCC(=O)N[C@@H](CCCNC(=N)N)C(=O)N[C@@H](CCCNC(=N)N)C(=O)N[C@@H](CCCNC(=N)N)C(=O)N[C@@H](CCCNC(=N)N)C(=O)N[C@H](C(=O)N[C@@H](CC(C)C)C(=O)N[C@H](C(=O)N[C@@H](CCCNC(=N)N)C(=O)N[C@@H](CCCNC(=N)N)C(=O)N[C@H](C(=O)N[C@@H](CC(C)C)C(=O)N[C@@H](CCCNC(=N)N)C(=O)N[C@@H](CC(C)C)C(=O)N[C@@H](CCCNC(=N)N)C(=O)N[C@@H](CO)C(=O)N[C@@H](CO)C(=O)N[C@@H](C)C(=O)N[C@@H](Cc1ccc(O)cc1)C(N)=O)C(C)C)[C@@H](C)CC)[C@@H](C)CC | human erythrocytes | – | – | 400 µM, 1 h | reference: Triton X-100 | hemolysis | 20% |
| COc1cc2c(Oc3ccc4[nH]c(C)cc4c3F)ccnc2cc1OCC1(N)CC1 | – | – | paediatric recurrent refractory sarcoma | 10 mg | – | grade 1 or 2 Headache | 25% |
| CC[C@H](C)[C@H](NC(=O)[C@H](C)NC(=O)[C@H](CCCCN)NC(=O)[C@H](CCCNC(=N)N)NC(=O)[C@H](CCCCN)NC(=O)[C@H](CCCNC(=N)N)NC(=O)[C@H](CCCCN)NC(=O)[C@@H](N)CCCNC(=N)N)C(=O)N[C@@H](CO)C(=O)NCC(=O)N[C@@H](CO)C(=O)N[C@@H](CC(C)C)C(=O)N[C@H](C(=O)N[C@H](C(=O)N[C@@H](CC(C)C)C(=O)N[C@@H](Cc1ccccc1)C(=O)NCC(=O)N[C@@H](Cc1ccc(O)cc1)C(N)=O)[C@@H](C)O)C(C)C | human erythrocytes | – | – | 400 µM, 1 h | reference: Triton X-100 | hemolysis | 17% |
| CC(C)CC(=O)OC[C@H]1O[C@@](C#N)(c2ccc3c(N)ncnn23)[C@H](O)[C@@H]1O | ATP-dependent translocase ABCB1 (ABCB1, Homo sapiens, UniProt P08183) | basolateral to apical transport | Caco-2 | 9 µM, 2 h, with: zosuquidar 25 µM | – | recovery | 67% |

A few entries again:
| SMILES | tested on | test | system | setting | how to read | endpoint | result |
| --- | --- | --- | --- | --- | --- | --- | --- |
| CC[C@H](C)[C@H](NC(=O)[C@H](C)N)C(=O)N[C@@H](CO)C(=O)NCC(=O)N[C@@H](CO)C(=O)N[C@@H](CC(C)C)C(=O)N[C@H](C(=O)N[C@H](C(=O)N[C@@H](CC(C)C)C(=O)N[C@@H](Cc1ccccc1)C(=O)NCC(=O)N[C@@H](Cc1ccc(O)cc1)C(=O)N[C@@H](CCCNC(=N)N)C(=O)N[C@@H](CCCNC(=N)N)C(=O)N[C@@H](CCCNC(=N)N)C(=O)N[C@@H](CCCNC(=N)N)C(=O)N[C@@H](CCCNC(=N)N)C(=O)N[C@@H](CCCNC(=N)N)C(N)=O)[C@@H](C)O)C(C)C | human erythrocytes | – | – | 400 µM, 1 h | reference: Triton X-100 | hemolysis | 28% |
